Earlier results as cited in several papers.
Numbered parts are unrelated; values within a part may stem from several laboratories.
Chain of UniProt Q9UNQ0 (whole entry, looked up): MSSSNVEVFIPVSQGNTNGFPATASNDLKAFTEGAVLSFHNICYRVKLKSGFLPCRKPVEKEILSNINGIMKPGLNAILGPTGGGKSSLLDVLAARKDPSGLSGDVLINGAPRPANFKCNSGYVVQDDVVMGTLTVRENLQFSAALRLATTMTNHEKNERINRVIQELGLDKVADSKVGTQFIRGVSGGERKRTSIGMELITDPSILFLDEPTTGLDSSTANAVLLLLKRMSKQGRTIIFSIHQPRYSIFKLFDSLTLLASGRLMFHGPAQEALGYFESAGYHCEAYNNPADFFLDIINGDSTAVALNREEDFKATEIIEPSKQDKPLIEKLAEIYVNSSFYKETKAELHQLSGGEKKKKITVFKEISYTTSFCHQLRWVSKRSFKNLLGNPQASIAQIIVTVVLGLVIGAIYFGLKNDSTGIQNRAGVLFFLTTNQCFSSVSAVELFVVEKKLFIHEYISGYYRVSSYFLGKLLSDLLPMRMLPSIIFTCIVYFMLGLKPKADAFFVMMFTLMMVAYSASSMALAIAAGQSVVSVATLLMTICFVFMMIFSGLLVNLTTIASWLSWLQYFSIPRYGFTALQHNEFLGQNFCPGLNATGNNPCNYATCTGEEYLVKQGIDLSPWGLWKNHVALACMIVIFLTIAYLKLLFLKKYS
Chain of UniProt O15244 (whole entry, looked up): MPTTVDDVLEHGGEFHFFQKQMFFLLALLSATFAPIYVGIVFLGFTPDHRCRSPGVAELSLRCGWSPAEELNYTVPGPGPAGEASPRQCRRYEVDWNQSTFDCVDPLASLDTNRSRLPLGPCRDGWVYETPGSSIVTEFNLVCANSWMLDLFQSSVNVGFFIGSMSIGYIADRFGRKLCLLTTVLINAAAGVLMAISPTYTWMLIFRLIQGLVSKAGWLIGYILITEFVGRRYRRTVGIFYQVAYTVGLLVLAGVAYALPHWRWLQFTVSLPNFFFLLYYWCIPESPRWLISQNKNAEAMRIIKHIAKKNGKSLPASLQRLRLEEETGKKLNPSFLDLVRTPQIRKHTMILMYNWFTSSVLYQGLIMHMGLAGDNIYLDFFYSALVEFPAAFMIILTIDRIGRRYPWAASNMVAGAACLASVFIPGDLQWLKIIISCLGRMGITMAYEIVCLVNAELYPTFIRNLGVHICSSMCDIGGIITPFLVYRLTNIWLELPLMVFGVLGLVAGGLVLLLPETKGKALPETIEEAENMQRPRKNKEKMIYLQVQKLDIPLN
Chain of UniProt P69848 (whole entry, looked up): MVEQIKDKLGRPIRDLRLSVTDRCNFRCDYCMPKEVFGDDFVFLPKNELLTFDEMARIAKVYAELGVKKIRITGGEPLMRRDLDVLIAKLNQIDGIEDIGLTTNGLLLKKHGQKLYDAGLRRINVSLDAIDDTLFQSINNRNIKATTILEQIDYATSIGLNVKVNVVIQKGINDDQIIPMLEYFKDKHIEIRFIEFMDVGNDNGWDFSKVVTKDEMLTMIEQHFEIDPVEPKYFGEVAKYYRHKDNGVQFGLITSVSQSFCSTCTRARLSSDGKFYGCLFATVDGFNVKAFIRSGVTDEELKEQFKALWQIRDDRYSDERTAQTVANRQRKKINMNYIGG

Study 1
Target: HLA class I histocompatibility antigen, A alpha chain, allele A*26:03 (Homo sapiens, UniProt P04439)
Observed: peptide-MHC binding
Molecule type: peptide
Molecule | IC50 [µM]
LLRDKDGVY | > 20
VFFKQWFEK | > 20
SYLIRALTL | > 20
QLKQRDALF | > 20
RQMKSGGRF | > 20
FYLFTFTIY | > 20
THYSGNIVH | > 20
ATNDGLIKK | > 20
LYNTIATLY | > 20
FLCPTFTLK | > 20
LEKWNLGII | > 20
WFGHLASDW | > 20
FQKDAKVLF | > 20
AKYEICLEK | > 20
SRWAISHWL | > 20
YKEPNSIIL | > 20
RYSNFAWYF | > 20
YYKDDISYF | > 20
KVFDKSLLY | > 20
LLLLISLVY | > 20
YISPIFIPM | 0.008
AEILSGRVI | > 20
FQYEHEQTF | > 20
ISDPLTSGL | > 20
QINELHHSK | > 20

Mixed results
Ar: Androgen receptor (Ar, Rattus norvegicus, UniProt P15207)
Chain of UniProt P15207 (whole entry, looked up): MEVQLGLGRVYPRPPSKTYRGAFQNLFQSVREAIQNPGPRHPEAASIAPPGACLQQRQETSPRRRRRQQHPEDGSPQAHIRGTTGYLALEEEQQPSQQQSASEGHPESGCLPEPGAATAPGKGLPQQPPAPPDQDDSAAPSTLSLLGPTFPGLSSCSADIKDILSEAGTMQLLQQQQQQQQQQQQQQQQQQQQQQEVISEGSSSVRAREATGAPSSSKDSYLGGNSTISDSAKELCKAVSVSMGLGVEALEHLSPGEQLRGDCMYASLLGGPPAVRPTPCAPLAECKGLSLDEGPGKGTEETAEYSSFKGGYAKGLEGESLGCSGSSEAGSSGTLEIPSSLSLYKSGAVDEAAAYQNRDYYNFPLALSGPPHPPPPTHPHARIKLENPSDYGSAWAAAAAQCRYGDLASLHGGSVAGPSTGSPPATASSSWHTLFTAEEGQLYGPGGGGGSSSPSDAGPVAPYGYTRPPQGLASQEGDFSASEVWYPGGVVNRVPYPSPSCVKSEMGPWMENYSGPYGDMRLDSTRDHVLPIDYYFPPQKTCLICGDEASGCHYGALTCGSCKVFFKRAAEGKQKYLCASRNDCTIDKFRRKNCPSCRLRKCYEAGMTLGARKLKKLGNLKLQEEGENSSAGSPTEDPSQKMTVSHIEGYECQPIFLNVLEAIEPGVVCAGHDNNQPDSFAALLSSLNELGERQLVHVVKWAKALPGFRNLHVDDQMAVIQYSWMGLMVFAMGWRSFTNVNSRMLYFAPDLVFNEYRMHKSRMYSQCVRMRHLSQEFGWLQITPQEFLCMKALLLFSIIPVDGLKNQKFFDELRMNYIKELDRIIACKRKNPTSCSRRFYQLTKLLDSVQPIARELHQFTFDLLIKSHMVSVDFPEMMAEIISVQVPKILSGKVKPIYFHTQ
Compound | target or system | test | test system | setting | scale | endpoint | value
C[C@@H]1CCN(C(=O)CC#N)C[C@@H]1N(C)c1ncnc2[nH]ccc12 | Solute carrier family 22 member 2 (SLC22A2, Homo sapiens, UniProt O15244) | transport, inhibitor |  | OCT2, literature value, with: creatinine substrate |  | IC50 | 150 µM
CCN(CC)C(=O)c1ccc([C@H](c2ccccc2)N2C[C@@H](C)N(Cc3cccc(F)c3)C[C@@H]2C)cc1 | rat delta opioid receptor | binding |  |  |  | Ki | 0.002 µM
NC(=O)O[C@@H](Cn1ncnn1)c1ccccc1Cl |  |  | mouse | i.p., 6 Hz seizure test, 32 mA |  | protective index | 3.2
N#C[C@@]1(c2ccc3c(N)ncnn23)O[C@H](CO)[C@@H](O)[C@H]1O |  |  | mouse | oral, 20 mg/kg |  | lung concentration | 1810 nmol/kg
N#CCNC(=O)c1ccc(-c2ccnc(Nc3ccc(N4CCOCC4=O)cc3)n2)cc1 |  |  | human | dose not given, mass balance |  | share of plasma radioactivity AUC | 64.2%
CCOC(=O)Nc1ccc(NCc2ccc(F)cc2)cc1N |  |  | male rat | i.p., MES seizure test |  | protective index | 2
CC(C)CN(C[C@@H](O)[C@H](Cc1ccccc1)NC(=O)O[C@H]1CO[C@H]2OCC[C@H]21)S(=O)(=O)c1ccc(N)cc1 | Broad substrate specificity ATP-binding cassette transporter ABCG2 (ABCG2, Homo sapiens, UniProt Q9UNQ0) | transport activity, inhibitor |  | with: estrone sulfate |  | IC50 | 75 µM
CCC(CC)COC(=O)[C@H](C)N[P@](=O)(OC[C@H]1O[C@@](C#N)(c2ccc3c(N)ncnn23)[C@H](O)[C@@H]1O)Oc1ccccc1 |  |  | mouse | 20 mg/kg, 2 h |  | lung concentration | 527 nmol/kg
CCCC(C)(C)c1ccc2c(c1)OC(C)(C)[C@@H]1CC=C(C)C[C@@H]21 | cannabinoid receptor CB2 | agonist |  |  |  | EC50 | 0.018 µM
O=C1Nc2ccc(Cl)cc2[C@@](C#CC2CC2)(C(F)(F)F)O1 |  |  | human |  |  | CL | 2.5 to 3.5 L/h
O=c1ccc2ncc(=O)n3c2n1C[C@H]3CN1CCC(NCc2cc3c(cn2)OCCC3)CC1 |  |  | urine plus faeces | oral | baseline: dose | dose eliminated by metabolism | ~13%
COc1ccc(-c2cnc3[nH]cc(C#Cc4cccnc4)c3c2)cc1OC | Huh-7 |  |  |  |  | CC50 | 17 µM
CCCC1COC(Cn2cncn2)(c2ccc(Cl)cc2Cl)O1 (stereo not drawn) | Ar |  |  | concentration not given |  | binding activity call | active
COc1ccc(C[C@H]2NC[C@H](O)[C@H]2OC(C)=O)cc1 | Entamoeba |  |  |  |  | IC50 | 0.7 µM
ClC(Cl)=C(c1ccc(Cl)cc1)c1ccc(Cl)cc1 |  |  |  | pH 7.4 |  | logD | 6.46
CC[C@H](C)[C@H](NC(=O)[C@H](Cc1ccc(O)cc1)NC(=O)[C@H](CC(N)=O)NC(=O)[C@H](CCSC)NC(=O)[C@H](CC(N)=O)NC(=O)[C@@H](NC(=O)[C@H](CCCCN)NC(=O)[C@H](CCCCN)NC(=O)[C@@H](N)CCCNC(=N)N)[C@@H](C)CC)C(=O)NCC(=O)NCC(=O)O | GTP 3',8-cyclase (moaA, Staphylococcus aureus, UniProt P69848) | binding |  |  |  | Kd | 50 to 150 µM
CN1C(=O)CN=C(c2ccccc2)c2cc(Cl)ccc21 |  |  | rat |  |  | blood-to-plasma ratio | 1.3
COc1ccc2c(c1)c(CCN1CCOCC1)c(C)n2C(=O)c1cccc(Cl)c1Cl | cannabinoid receptor CB2 | agonist |  |  |  | EC50 | 0.0006 µM
CO[C@@H](C)Cn1c(=O)n(C)c2cnc3ccc(-c4cncc(C(C)(C)O)c4)cc3c21 |  |  | human cancer patients, CRPC | with: enzalutamide |  | maximum tolerated dose | 200 mg twice daily
CCCCCOc1ccc(-c2cc(-c3ccc(C(=O)N[C@H]4C[C@@H](O)[C@@H](O)NC(=O)[C@@H]5[C@@H](O)[C@@H](C)CN5C(=O)[C@H]([C@H](O)CC(N)=O)NC(=O)[C@H]([C@H](O)[C@@H](O)c5ccc(O)c(OS(=O)(=O)O)c5)NC(=O)[C@@H]5C[C@@H](O)CN5C(=O)[C@H]([C@@H](C)O)NC4=O)cc3)no2)cc1 | NTCP | substrate |  |  |  | Km | 40 µM
COC(=O)C[C@@H]1N=C(c2ccc(Cl)cc2)c2c(sc(C)c2C)-n2c(C)nnc21 | Bromodomain-containing protein 4, BD1 (BRD4, Homo sapiens, UniProt O60885) | binding |  |  |  | Kd | 0.0361 µM
CO[C@H]1/C=C/O[C@@]2(C)Oc3c(C)c(O)c4c(O)c(c(/C=N/N5CCN(C)CC5)c(O)c4c3C2=O)NC(=O)/C(C)=C\C=C\[C@H](C)[C@H](O)[C@@H](C)[C@@H](O)[C@@H](C)[C@H](OC(C)=O)[C@@H]1C |  | perpetrator | human | dose not given, with: midazolam as victim drug |  | victim drug AUC decrease | 96%
CCc1cc(O)cc2c(/C=N/NC(=N)NCCc3ccc(Cl)cc3)c[nH]c12 | RXFP4 | agonist |  |  |  | EC50 | 0.002 µM
COCCc1ccc(OCC(O)CNC(C)C)cc1 (stereo not drawn) |  |  | human |  |  | CL | 6 to 10 L/h
c1c[nH]cn1 | sperm whale metmyoglobin H64Q |  |  |  |  | apparent dissociation rate constant | 0.9 s⁻¹
C[C@H]1CCCC(=O)CCC/C=C/c2cc(O)cc(O)c2C(=O)O1 | Ar | validation reference set |  | concentration not given |  | AR binding call | inactive

Some of these lines once more (study 1):
Molecule | IC50 [µM]
LYNTIATLY | > 20
FLCPTFTLK | > 20
LEKWNLGII | > 20
